Published values gathered from unrelated publications.
Each line is one published result; not all experiments were run side by side.

Structure (SMILES) | test | system | conditions | quantity | value
NC1(C(=O)N[C@@H](CCO)c2ccc(Cl)cc2)CCN(c2nc[nH]c3nccc2-3)CC1 |  | metastatic CRPC patients | 400 mg b.i.d., any grade, treatment-related, added: enzalutamide 160 mg daily | incidence of white blood cell decreased | 14.3%
NCCONC(=O)[C@@H]1CC[C@@H]2CN1C(=O)N2OS(=O)(=O)O |  | healthy Chinese male subjects | intravenous, 2 g | incidence of serious adverse events | 0%
C[C@@H](N)C1CCN(S(=O)(=O)c2cccc3cnccc23)CC1 |  | healthy volunteers | 150 mg, fed | incidence of headache TEAE | 20%
COc1ccc([C@@H](O)c2cc(-c3ncnc4cc(N5CCOCC5)ccc34)c(F)cc2Cl)nn1 |  | locally advanced rectal cancer | oral, 150 mg, added: capecitabine and radiotherapy | incidence of proctitis TEAE | 33%
C[C@@H](c1ccc2nccn2c1)n1nnc2ncc(-c3cnn(C)c3)nc21 | measured: AST increased | EGFR-mutant MET-altered NSCLC patients | oral, dose not given, AE grade ≥3, all | incidence of treatment-related AEs | 4%
CCO[C@H]1CCN(Cc2c(OC)cc(C)c3[nH]ccc23)[C@H](c2ccc(C(=O)O)cc2)C1 |  | PNH patients, active haemolysis | oral, 100 mg, 8 weeks, treatment | incidence of back pain | 0%
O=C(Nc1nc2cccc(-c3ccc(CN4CCS(=O)(=O)CC4)cc3)n2n1)C1CC1 |  | rheumatoid arthritis patients | oral, 75 mg once daily, 4 weeks, TEAE regardless of relatedness | incidence of gastritis | 0%
C=CC(=O)Nc1cc(Nc2nccc(-c3cn(C)c4ccccc34)n2)c(OC)cc1N(C)CCN(C)C | measured: any AE | EGFR-mutant MET-altered NSCLC patients | oral, dose not given, AE grade ≥3, all | incidence of treatment-related AEs | 38%

A few entries again:
Structure (SMILES) | test | system | conditions | quantity | value
O=C(Nc1nc2cccc(-c3ccc(CN4CCS(=O)(=O)CC4)cc3)n2n1)C1CC1 |  | rheumatoid arthritis patients | oral, 75 mg once daily, 4 weeks, TEAE regardless of relatedness | incidence of gastritis | 0%
